Results of several laboratories.
Each numbered part is a random draw from the data of one study; scales do not carry over between parts.

Set 1 — method: RNA Bind-n-Seq; molecule type: RNA; matrix: in vitro; tested at: 200 nM; setting: whole 134-nt RNA, ends assumed; with: 150 mM KCl; relative to: input library; reading: higher = stronger binding; quantity: log2 enrichment
Target: Fragile X messenger ribonucleoprotein 1, C-terminal low-complexity region (Fmr1, Mus musculus, UniProt P35922)
All sequences stand within: GGGAGUUCUACAGUCCGACGAUC … UGGAAUUCUCGGGUGUCAAGG
UCAAGUCCUGUGCUACACAUCGUAUGUACCGAAUCGGAAAAAAAGGUGGAAAGGAAAGUAUUAUGUUACGCCGUUCGGAUCUGCACUUCC: -0.522
GGCACAGGUGCCCGACCAUACACUGGGAAAGUUGGUGCUGAGGAUGCCGAUGGGAUUGACAUGGCCUACCGGGUGCUGGCUGACCACGCU: -0.86
UCCUGUGCUACACAUCGUAUGUACCGAAUCGGGGUUUUUUUGGGGUUUUUGGGGAGGGGAAAGUAUUAUGUUACGCCGUUCGGAUCUGCA: 0.694
UGGCCCUGGGGGCAUGCGGGGAGGAAGAGGUGGCCUCAUGGAUCGUGGUGGUCCCGGUGGAAUGUUCAGAGGUGGCCGUGGUGGAGACAG: -0.0467
GCAGGAAGUAAAAACAAAUGGAAAUGCUUCGGAUAGUGGCAGGGGUGGGGGUUGCUAAGGAAAGGGUGGGAUGGGAGUGGGUAAAGAUUU: 0.243

Set 2 — method: universal PBM; molecule type: double-stranded DNA, one strand shown; matrix: in vitro; tested at: not given; reading: higher = stronger binding; quantity: E-score
Target: Sal-like protein 4, full length isoform B (SALL4, Homo sapiens, UniProt Q9UJQ4-2, residues 1-616)
Setting: 8-mer, flanks averaged, mean of replicates
AGATCCAA: -0.0564
AATGTAAT: 0.315
ATCTGGGA: -0.0521
GCAATTCC: 0.0367
AATAACGA: 0.289
GTTCGCCA: -0.089
AGCCCCTG: -0.35
ACCTAAAC: 0.0194
ATCGTCAG: 0.032

Set 3 — method: protein binding microarray; molecule type: double-stranded DNA, one strand shown; matrix: in vitro; tested at: not given; relative to: not given; reading: higher = stronger binding; quantity: E-score
Target: Histone acetyltransferase KAT6A, both winged helices, GST fusion (KAT6A, Homo sapiens, UniProt Q92794, residues 1-181)
Setting: 8-mer, flanks averaged, mean of 2 arrays, mostly near background
Construct (chain): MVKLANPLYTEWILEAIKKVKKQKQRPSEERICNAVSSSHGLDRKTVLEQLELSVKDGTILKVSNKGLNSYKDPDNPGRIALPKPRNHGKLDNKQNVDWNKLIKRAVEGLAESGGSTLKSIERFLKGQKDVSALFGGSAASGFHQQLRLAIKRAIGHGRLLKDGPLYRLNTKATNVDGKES
CATGAGGC: -0.063
TCATCCCA: -0.24
CGGGTGTA: 0.121
CGCCGTGC: 0.273
GATCCCAA: -0.154
CTGCCTGA: -0.157
AACCCCCC: -0.254
GCAAGATA: 0.0291

Single results of other studies
KLLPRKLQFFCDP
growth enrichment score (Saccharomyces cerevisiae; binding, competitive growth deep sequencing; peptide, cyclin E1-Cln2 fusion strain; concentration not given, Cln2 score subtracted; direction not given): 0.793

A few entries again (set 2):
AGCCCCTG: -0.35
ACCTAAAC: 0.0194
